Published values gathered from unrelated publications.
Numbered parts are unrelated; each lists some results of a single study.

Study 1
Target: RNA binding protein fox-1 homolog 2, RRM domain, GST-SBP tag (RBFOX2, Homo sapiens, UniProt O43251-10, residues 100-194)
Method: RNA Bind-n-Seq
Form: RNA
Matrix: in vitro
Concentration: 365 nM
Notes: natural RNA segment, single round, ends assumed
Reference: no-protein control
Direction: higher = stronger binding
All sequences stand within: GGGAGUUCUACAGUCCGACGAUC … UGGAAUUCUCGGGUGCCAA
Construct (chain): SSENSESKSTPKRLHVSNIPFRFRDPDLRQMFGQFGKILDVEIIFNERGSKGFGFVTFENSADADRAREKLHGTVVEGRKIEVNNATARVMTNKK
Sequence	RBNS enrichment (R)
GAAAUAAGUACCUGUGGUGAACAAGUUUCUACUGUAGUUGGAGAUCAUUAGAAUUGAAUUCAGUUUCUCUUAGAAUAUAAUCAGGUAUAAACCUAAGUUAAACUUUUUCC	0.39
GCUGAUUUGAUGAUUGAAAUGUGAAAGUGAAGUGGAAGGAAUGAAUGAAGUGUGUUUUUUUUUUCUUUUUUGAGGAAUUAUCAGGGAAGUGAGGAAAUGUUUGGGAGAGG	4.06
GAGAAAGGUACACAGUUGCCCGGUUGGGAAUGUGCUUGGCGCUGACCCUGCGGGCAUCUGACUGGUCUUCCAGCUCAGGAAAAAGAAUUUGAAAGAGGCUUAGCGUGAAG	0.353
UGGUUACAUCCCGUCCAGUCAGGAAGGAAAAGAAAAGGAAAAGUGCCUCGCUGGCUUCCUCCUUUUCACACACUCCAAUACUUUAAUGCAUGGAACAGGUCUGCCUAUGU	0.666
CUGUUGGAAAGGGAAAAAUUCACCAUAUCCAAGGGGAGAGACGAUGGGCUGGGUUUGUUUACUCCAACUUCCCUUCUACACCCCUCCUGCAGGACAGUACGAUUUGGGGA	0.354
UAAAUUUUAAAUGGAAUAUUUUAAACUGAUACAGUGGUGUAUGUGUGUGUAUAUGUAAUUUUCUUAAUGUCUUAAGAAAUCUGGCUAUAUAAGUUCCACUGUACAAUGUC	1.44
CCUAUAUUCCCAAGGAGGCUGACUCCGGGGGCCCUUCCCCCCAGGCCAGCAAUGUAUUCCGGGGAUGUAUUCUGGGGUCUGAGGGCCCUGGCCCAUUCUGAGAAAUGGAG	0.264
ACCAAGUGAUCUUGUUUACAGUAACCGUCAACAGUGCCAAUAAGGGGUGAGGACACUAACAGUGUAACUGGUGACCACGUGAACAGUUCCAUGAAUUAAAUGUUUCCUGU	0.539

Study 2
Target: Ras GTPase-activating protein-binding protein 1, full length (G3BP1, Homo sapiens, UniProt Q13283)
Sequence of UniProt Q13283 (whole entry, looked up): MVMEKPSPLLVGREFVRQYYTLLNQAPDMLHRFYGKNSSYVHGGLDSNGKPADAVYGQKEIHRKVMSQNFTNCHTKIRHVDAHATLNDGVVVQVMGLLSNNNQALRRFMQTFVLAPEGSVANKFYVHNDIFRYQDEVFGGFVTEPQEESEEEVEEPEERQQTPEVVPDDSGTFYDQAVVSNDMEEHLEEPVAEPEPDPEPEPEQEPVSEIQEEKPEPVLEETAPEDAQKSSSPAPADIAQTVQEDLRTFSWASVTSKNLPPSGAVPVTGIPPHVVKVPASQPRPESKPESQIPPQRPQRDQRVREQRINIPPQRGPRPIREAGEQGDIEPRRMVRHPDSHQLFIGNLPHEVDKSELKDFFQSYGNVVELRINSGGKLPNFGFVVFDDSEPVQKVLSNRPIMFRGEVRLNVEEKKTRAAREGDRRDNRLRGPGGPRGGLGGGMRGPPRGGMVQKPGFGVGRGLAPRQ
Method: RNA Bind-n-Seq
Form: RNA
Matrix: in vitro
Concentration: 200 nM
Notes: whole 134-nt RNA, ends assumed
With: 150 mM LiCl
Reference: input library
Direction: higher = stronger binding
All molecules: 7-deaza-guanosine replaces G
All sequences stand within: GGGAGUUCUACAGUCCGACGAUC … UGGAAUUCUCGGGUGUCAAGG
Sequence	log2 enrichment
CAAGUCCUGUGCUACACAUCGUAUGUACCGAAUCGGGAAAAAGGGUGGGUUUGGGAAAGUAUUAUGUUACGCCGUUCGGAUCUGCACUUC	-1.02
GUCCUGUGCUACACAUCGUAUGUACCGAAUCGGGGAGGGGUUUUUGGGGAAAAAGGGGAAAGUAUUAUGUUACGCCGUUCGGAUCUGCAC	0.309
ACCAUGCAGGUGAGCAUCUUUGGGAAGUGGGGCAAGGGGGGGAUAGGGAGGGGGGUAACACUUUGGGAACAGGUGGUCCCAGGUCGUUUC	0.633
CACAGACAACACGCACCCACACAGACACAGAGGGAAGGGGUUGGGAUGGGGACAGGGUGCACAGCCGGGCGGGGUAGGACCCCAGCCCCU	-1.6
GCAGGAAGUAAAAACAAAUGGAAAUGCUUCGGAUAGUGGCAGGGGUGGGGGUUGCUAAGGAAAGGGUGGGAUGGGAGUGGGGAAAGAGUU	-0.352
UGUGAGCGGAGCCUGGAGGAGCUGCUGCACUACGUGGGCCAGCUGCGGGCUGAGCUGGCCAGCGCAGGUGGGUGGCCACCCUUGCAAGUG	-0.153
UGGGAGGUGGAUUUUGUUUAUUUUUUUAGCUCAUUUCCAGGGGUGGGAAUUUUUUUUUAAUAUGUGUCUUGAAUAAAGUUGUUUUUGAAA	-0.0735
CCUCAAGUCCUGUGCUACACAUCGUAUGUACCGAAUCGGGGAGGGAGGGGAGGAAAGUAUUAUGUUACGCCGUUCGGAUCUGCACUUCCA	-0.204

Study 3
Target: Histone acetyltransferase KAT6A, winged helix 2, GST fusion (KAT6A, Homo sapiens, UniProt Q92794, residues 85-181)
Method: protein binding microarray
Form: double-stranded DNA, one strand shown
Matrix: in vitro
Concentration: not given
Notes: 8-mer, flanks averaged, mean of 2 arrays, mostly near background
Reference: not given
Direction: higher = stronger binding
Residues (chain): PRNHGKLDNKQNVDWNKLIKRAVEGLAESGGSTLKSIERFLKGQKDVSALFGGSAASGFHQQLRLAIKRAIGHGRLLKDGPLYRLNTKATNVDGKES
Sequence	E-score
CGTGAAAG	-0.032
CCGGACTC	0.192
CCGGTACA	-0.035
CGCTCCTA	0.0606
AAGAACAA	0.111
ACTTCACT	-0.0764
GAGTGAAA	0.128
AGTAGGGG	-0.0348
GCGATCCA	0.0387
CGGGACAG	0.212
CTATGGAG	-0.18
ATTAGTAG	0.0735
ATTGGGAC	0.0443
ATGCCCCG	0.0486
CTGGTGTA	-0.243
GTTATAAA	0.0725
ATGTTGCC	-0.126
GAAGGTAA	0.0926
TGCGGCCA	0.126
GCCACTCC	-0.0422
GCTAAAAA	0.0332
ACCCAGCC	0.0508

Study 4
Target: Sal-like protein 4, full length isoform A (SALL4, Homo sapiens, UniProt Q9UJQ4, residues 1-1053)
Sequence of UniProt Q9UJQ4 (whole entry, looked up): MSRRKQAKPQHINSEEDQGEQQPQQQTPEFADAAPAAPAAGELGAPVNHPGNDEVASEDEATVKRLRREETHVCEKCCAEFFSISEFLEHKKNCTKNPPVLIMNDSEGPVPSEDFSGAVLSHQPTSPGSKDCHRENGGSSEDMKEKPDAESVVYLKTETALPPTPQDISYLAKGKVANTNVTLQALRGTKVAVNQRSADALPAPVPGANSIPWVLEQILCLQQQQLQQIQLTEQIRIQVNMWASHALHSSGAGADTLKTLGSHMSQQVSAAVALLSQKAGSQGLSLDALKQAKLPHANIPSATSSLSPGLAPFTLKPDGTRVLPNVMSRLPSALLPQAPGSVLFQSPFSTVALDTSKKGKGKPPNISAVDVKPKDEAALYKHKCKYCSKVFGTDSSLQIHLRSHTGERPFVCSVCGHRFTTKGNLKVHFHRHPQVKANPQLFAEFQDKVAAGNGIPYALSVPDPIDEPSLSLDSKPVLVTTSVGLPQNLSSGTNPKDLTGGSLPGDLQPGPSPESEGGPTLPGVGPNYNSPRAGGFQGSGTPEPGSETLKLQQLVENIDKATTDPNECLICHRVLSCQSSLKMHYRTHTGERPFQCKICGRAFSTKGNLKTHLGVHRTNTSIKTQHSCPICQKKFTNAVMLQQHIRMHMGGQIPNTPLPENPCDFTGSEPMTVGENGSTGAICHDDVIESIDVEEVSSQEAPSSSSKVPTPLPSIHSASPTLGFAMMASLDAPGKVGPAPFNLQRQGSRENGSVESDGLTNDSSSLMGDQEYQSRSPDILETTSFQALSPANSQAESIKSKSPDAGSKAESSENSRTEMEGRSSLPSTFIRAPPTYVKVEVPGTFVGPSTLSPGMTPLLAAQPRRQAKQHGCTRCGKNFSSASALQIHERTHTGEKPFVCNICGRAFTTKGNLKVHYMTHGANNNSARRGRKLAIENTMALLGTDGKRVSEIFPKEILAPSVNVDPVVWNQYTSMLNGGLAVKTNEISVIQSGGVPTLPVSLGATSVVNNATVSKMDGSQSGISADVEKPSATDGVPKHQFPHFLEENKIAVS
Method: universal PBM
Form: double-stranded DNA, one strand shown
Matrix: in vitro
Concentration: 600 nM
Notes: 8-mer, flanks averaged, mean of replicates
Direction: higher = stronger binding
Sequence	E-score
AATAAGTC	0.275
AGCTTCAA	0.11
GGATCGGA	-0.244
GGGCTACC	-0.418
GATAGGTA	0.17
AAAACAAC	0.13
ACGGTAGG	-0.13
GAGCCGGC	-0.269
CGATCACA	0.12
CATTGCAG	-0.0177
ATCGCGCG	-0.116
CGTAAGAA	-0.00929
ACTGTACC	-0.0549
GGGCACCA	-0.274
AGTCTCGA	-0.0272
AAGGACAT	0.0459
AGACTGAA	0.037
ATTCCGAG	-0.0135
ATACTTAA	0.331
ATACTTTG	0.268
AGTCGCGA	-0.0676

Excerpt of the above (study 3):
Sequence	E-score
GCGATCCA	0.0387
GTTATAAA	0.0725
ATGTTGCC	-0.126
CGCTCCTA	0.0606
ACCCAGCC	0.0508
TGCGGCCA	0.126
